Published values collected from several papers.
Every numbered part comes from another study and shows a few of its results, in no order. Substitutions count along the parent as printed.
Chain of UniProt O15294 (whole entry, looked up): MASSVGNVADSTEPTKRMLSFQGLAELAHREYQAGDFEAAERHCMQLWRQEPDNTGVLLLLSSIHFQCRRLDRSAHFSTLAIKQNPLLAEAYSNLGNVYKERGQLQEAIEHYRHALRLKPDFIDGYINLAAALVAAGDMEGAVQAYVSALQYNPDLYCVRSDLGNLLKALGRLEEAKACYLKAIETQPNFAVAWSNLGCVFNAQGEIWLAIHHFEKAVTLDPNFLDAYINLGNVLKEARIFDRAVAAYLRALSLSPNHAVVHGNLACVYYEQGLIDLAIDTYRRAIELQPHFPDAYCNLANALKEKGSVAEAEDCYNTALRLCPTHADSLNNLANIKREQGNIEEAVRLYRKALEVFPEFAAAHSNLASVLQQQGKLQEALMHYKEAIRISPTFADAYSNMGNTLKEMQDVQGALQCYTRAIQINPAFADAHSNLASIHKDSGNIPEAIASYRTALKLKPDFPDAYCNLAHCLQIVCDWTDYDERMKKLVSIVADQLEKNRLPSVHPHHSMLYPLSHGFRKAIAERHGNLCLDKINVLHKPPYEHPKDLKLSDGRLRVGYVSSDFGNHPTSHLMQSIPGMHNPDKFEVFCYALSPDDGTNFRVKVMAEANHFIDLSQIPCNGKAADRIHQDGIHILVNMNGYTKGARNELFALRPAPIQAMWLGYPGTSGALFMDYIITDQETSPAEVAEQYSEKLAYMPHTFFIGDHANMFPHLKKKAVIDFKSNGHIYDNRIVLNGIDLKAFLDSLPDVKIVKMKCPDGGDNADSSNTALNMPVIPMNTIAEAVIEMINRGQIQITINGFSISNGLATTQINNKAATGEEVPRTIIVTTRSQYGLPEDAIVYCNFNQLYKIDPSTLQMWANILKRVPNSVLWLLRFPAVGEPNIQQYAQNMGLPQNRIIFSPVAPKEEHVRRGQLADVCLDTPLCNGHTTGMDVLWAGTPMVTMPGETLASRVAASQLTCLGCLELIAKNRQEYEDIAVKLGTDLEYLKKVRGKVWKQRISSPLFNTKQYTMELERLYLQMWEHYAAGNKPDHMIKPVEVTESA

Block 1
Target: CCNB3, cyclin fold, Cln2 fusion (human)
Technique: yeast growth competition, sequencing
Sample: yeast
Setting: strong parent motif
Reference: not given
Reading: higher = stronger binding
Starting sequence: viral docking peptide; TSVRRALFTGGSD; partner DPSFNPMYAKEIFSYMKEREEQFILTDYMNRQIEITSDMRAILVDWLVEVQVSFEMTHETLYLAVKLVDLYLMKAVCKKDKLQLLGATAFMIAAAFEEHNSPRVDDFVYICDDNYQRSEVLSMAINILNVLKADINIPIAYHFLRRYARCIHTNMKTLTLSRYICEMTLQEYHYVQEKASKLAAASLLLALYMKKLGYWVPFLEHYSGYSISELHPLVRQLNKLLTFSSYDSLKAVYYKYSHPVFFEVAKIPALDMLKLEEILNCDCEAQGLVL
Substitution	normalised enrichment score
L7G	0.0662
G11K	1.51
V3H	0.224
S2P	1.5
S12W	1.49
S12C	2.08
L7N	0.205
G10Q	1.91
A6S	5.21
R5E	0.0694
A6F	0.382
R5A	0.487
L7P	0.0337
V3K	0.325
S2D	1.53
F8I	0.57
G10K	1.62

Block 2
Target: PABPC1L2, full length, GST fusion (mouse, UniProt A0ABA7IW68)
Technique: RNAcompete
Form: RNA
Sample: in vitro
Tested at: 20 nM
Setting: 7-mer, probes averaged, single round
Reference: mean of 7-mers
Reading: higher = stronger binding
Residues (chain): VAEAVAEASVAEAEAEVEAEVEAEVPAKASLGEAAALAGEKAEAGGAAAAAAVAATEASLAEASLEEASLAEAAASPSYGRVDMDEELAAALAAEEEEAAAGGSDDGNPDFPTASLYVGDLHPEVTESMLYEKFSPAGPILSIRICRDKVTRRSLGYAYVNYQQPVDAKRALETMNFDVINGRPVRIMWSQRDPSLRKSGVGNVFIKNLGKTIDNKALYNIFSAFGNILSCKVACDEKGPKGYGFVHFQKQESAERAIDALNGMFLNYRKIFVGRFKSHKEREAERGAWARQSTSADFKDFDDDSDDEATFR
Oligonucleotide	7-mer Z-score
AAGUUAA	0.119
AGAAUUU	-0.338
CUUAAGA	-0.2
GACCAUA	-0.148
AGCUAAU	-0.148
UUCCUCU	-0.394
UCUUUUG	-0.103
CCCAUGU	-0.365

Block 3
Target: Prothrombin, mature alpha-thrombin (F2, Homo sapiens, UniProt P00734)
Technique: aptamer microarray, sandwich
Form: DNA with 2'F-ANA
Sample: in vitro
Tested at: 200 nM
Setting: whole 15-mer aptamer, many near background
Together with: Cy3 exosite-II aptamer, 400 nM
Reading: higher = stronger binding
Oligonucleotide: GGTTGGTGTGGTTGG
Modification	mean fluorescence intensity [a.u.]
2'F-ANA at 3 4 6 7 8 9 11 15	525
2'F-ANA at 1 3 6 7 9 11 14	85.2
2'F-ANA at 1 3 4 5 6 7 8 10 11 14	85.2
2'F-ANA at 1 3 7 8 10 11	86.1
2'F-ANA at 1 7 9 10 11 15	57.9
2'F-ANA at 1 4 6 8 9 10 11 15	58.9
2'F-ANA at 3 7 9 11 12 15	1260
2'F-ANA at 1 6 9 11 15	141

Other studies, line by line
Molecule	target	assay	test system	conditions	how to read	endpoint	result
HNHHSHASQMPKFDV	UDP-N-acetylglucosamine--peptide N-acetylglucosaminyltransferase 110 kDa subunit (OGT, Homo sapiens, UniProt O15294)	binding, phage display NGS	peptide	concentration not given	reference: input library	enrichment fold change	3.04

Repeated from above (block 2):
Oligonucleotide	7-mer Z-score
AAGUUAA	0.119
GACCAUA	-0.148
